# Measured values from different studies.
# The chains behind the UniProt entries cited, without tags or fusion partners. Residues count along the entry.
# UniProt Q8WQX9, 1-930: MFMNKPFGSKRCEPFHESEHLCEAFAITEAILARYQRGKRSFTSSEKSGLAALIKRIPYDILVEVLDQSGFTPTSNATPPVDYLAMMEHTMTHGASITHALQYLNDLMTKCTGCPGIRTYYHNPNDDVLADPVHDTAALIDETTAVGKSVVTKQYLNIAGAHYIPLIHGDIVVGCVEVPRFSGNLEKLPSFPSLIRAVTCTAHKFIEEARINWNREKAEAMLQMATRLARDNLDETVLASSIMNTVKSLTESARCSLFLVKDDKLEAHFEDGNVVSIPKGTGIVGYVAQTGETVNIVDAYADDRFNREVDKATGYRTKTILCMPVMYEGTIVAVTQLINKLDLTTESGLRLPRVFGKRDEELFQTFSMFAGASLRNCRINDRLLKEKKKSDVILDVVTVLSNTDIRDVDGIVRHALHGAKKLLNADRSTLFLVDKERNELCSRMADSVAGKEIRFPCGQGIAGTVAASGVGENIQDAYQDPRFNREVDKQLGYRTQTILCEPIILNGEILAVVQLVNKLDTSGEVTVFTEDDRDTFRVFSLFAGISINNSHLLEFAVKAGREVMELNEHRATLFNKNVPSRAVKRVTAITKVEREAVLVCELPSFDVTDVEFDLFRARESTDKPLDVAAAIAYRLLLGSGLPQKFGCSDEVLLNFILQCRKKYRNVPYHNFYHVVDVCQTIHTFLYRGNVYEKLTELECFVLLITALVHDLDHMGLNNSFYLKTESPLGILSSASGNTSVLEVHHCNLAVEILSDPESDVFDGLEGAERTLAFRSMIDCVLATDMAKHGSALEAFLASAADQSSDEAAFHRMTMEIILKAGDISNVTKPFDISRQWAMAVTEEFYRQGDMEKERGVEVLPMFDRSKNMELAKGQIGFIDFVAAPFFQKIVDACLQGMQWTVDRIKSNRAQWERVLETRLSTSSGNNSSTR
# UniProt P19650, whole entry: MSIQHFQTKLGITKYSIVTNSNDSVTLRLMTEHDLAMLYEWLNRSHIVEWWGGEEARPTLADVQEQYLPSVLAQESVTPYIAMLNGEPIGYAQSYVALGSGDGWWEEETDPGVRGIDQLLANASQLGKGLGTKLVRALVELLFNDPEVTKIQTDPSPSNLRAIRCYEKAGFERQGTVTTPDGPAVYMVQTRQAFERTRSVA
# UniProt O39928, 2424-3014 limits assumed: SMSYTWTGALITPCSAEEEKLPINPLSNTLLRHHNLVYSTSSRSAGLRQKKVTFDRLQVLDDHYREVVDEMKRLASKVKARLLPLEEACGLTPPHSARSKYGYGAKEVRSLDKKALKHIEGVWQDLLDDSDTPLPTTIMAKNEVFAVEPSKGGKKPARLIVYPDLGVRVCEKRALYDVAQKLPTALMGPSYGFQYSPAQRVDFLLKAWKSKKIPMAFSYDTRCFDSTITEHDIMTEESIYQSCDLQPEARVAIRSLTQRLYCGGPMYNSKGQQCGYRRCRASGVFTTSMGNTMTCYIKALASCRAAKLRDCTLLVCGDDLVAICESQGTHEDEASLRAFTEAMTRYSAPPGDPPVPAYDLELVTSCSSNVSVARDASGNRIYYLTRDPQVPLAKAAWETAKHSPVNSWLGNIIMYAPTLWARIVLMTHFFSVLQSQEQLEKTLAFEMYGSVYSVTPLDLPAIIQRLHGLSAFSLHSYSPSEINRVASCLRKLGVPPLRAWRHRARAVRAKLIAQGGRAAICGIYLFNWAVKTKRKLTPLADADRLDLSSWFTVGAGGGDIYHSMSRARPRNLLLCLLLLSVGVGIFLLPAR
# UniProt P05067, 672-713 limits assumed: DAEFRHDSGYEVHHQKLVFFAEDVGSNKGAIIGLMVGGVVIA
# UniProt P00533, 25-1210 T790M limits assumed: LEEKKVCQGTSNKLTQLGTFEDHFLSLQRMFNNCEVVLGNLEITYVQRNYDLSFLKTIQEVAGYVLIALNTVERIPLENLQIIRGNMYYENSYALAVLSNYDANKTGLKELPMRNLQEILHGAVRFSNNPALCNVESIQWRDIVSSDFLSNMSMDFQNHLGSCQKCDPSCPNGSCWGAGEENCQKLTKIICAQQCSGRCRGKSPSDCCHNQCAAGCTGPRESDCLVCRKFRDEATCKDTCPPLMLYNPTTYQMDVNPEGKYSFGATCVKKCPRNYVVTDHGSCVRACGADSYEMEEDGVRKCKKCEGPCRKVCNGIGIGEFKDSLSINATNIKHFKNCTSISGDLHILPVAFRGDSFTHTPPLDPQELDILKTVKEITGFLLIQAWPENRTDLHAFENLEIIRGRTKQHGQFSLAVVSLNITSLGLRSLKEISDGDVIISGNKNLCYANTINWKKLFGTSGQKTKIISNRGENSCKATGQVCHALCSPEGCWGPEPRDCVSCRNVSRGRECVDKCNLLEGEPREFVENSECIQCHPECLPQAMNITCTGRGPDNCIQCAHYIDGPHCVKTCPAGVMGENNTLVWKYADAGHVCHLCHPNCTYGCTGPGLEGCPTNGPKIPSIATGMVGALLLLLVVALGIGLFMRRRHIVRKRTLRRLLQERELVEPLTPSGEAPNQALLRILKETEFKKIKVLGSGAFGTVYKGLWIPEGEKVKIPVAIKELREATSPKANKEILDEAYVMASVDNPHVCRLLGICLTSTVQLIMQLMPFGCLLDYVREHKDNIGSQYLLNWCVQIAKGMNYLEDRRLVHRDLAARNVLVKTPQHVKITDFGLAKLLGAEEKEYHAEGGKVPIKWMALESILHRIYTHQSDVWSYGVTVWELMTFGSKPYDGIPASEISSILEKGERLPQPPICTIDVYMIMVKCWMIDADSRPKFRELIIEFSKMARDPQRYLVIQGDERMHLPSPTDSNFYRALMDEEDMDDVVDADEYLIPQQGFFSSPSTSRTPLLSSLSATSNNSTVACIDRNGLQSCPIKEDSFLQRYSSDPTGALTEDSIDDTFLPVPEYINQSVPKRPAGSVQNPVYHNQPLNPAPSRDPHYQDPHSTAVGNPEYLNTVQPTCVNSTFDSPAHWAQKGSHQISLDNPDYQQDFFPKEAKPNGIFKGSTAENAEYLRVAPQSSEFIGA
# UniProt P06802, 92-905 isoform 2 limits assumed: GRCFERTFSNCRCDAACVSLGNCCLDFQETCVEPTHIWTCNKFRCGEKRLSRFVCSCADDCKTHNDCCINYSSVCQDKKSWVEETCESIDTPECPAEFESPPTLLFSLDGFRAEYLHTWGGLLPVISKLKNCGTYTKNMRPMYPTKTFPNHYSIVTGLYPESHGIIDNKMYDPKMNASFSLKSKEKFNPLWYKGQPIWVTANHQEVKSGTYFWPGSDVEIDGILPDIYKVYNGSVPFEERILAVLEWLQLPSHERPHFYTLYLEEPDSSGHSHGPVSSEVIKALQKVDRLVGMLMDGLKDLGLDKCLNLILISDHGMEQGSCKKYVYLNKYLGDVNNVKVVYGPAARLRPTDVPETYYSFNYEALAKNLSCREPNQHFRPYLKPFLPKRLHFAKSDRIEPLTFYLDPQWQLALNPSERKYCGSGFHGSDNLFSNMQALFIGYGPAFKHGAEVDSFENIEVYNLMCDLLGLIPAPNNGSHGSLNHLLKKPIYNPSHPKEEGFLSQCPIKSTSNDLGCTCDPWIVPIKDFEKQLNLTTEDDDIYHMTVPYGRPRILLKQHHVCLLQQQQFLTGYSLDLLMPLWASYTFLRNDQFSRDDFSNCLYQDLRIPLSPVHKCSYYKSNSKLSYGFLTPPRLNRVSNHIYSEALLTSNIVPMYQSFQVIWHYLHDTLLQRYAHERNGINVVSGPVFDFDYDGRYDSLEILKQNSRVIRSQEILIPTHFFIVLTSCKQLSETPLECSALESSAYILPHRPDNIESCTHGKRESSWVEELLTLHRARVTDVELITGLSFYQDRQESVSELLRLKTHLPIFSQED
# Compare with care: the assays were run in different laboratories. ± marks the error that the study gave.
# PDEB1: Class 1 phosphodiesterase PDEB1 (PDEB1, Trypanosoma brucei, UniProt Q8WQX9)
# aacA4: Aminoglycoside N(6')-acetyltransferase type 1 (aacA4, Klebsiella pneumoniae, UniProt P19650)
SMILES,target,test,test system,conditions,how to read,quantity,value
O=c1ccn([C@@H]2O[C@H](COP(=O)(O)OP(=O)(O)OP(=O)(O)O)[C@@H](O)[C@]2(F)Br)c(=O)[nH]1,"Genome polyprotein, NS5B polymerase (Hepatitis C virus genotype 5a, UniProt O39928)","polymerase activity, inhibitor","Hepatitis C virus, genotype 5a",,baseline: genotype 1b,IC50 fold change,1.9
CCOc1cccc(Nc2c(C(N)=O)cnc3c(C)cc(-c4ccc5cnn(C)c5c4)cc23)c1,PDEB1,"enzyme activity, inhibitor",,10 µM,,inhibition,82 ± 12%
CC(C)(O/N=C(\C(=O)NCB(O)O)c1csc(N)n1)C(=O)O,"ADC-7 beta-lactamase (Acinetobacter baumannii, UniProt Q6DRA1)",ESI-MS intact protein,,"15 min, with: enzyme 14 µM",,adduct mass,40600 Da
CN(C)c1cccc(Oc2cnc(Nc3ccccc3)nc2)c1,"APP (Homo sapiens, UniProt P05067)","inhibitor, ThT fluorescence",,"concentration not given, 26 h, 37 °C, with: amyloid-beta 42 12.5 µM",,amyloid-beta 42 aggregation,decreased
COc1cccc(Nc2c(C(N)=O)cnc3ccc(-c4ccc5cnn(C)c5c4)cc23)c1,PDEB1,"enzyme activity, inhibitor",,10 µM,,inhibition,84 ± 2.4%
C=CC(=O)Nc1cc(-n2c(=O)ccc3cnc4ccc(-c5cn[nH]c5)cc4c32)ccc1C,"EGFR (Homo sapiens, UniProt P00533, T790M)",KinomeScan binding,,1 µM,,remaining binding,2%
CC(CCN[C@H](CN[C@H](CO)CN1CCC[C@H]1CN[C@H](CN)c1ccccc1)c1ccccc1)c1ccccc1 (stereo partly shown),aacA4,acetyltransferase activity,,5 µM,,inhibition,> 70%
COc1cc2ncnc(N3CCC(CCNS(N)(=O)=O)CC3)c2cc1OC,"Enpp1 (Mus musculus, UniProt P06802)",inhibitor,,with: cGAMP substrate,"baseline: pH 7.4 over pH 9, higher = weaker at pH 7.4",Ki ratio,100 fold
CCCC[C@H](CN)NC[C@@H]1CCCN1C[C@@H](CO)NC[C@@H](NCCC12CC3CC(CC(C3)C1)C2)c1ccccc1,aacA4,acetyltransferase activity,,5 µM,,inhibition,> 70%
COc1cccc(Nc2ncc(Oc3cccc(N(C)C)c3)cn2)c1,"Amyloid-beta precursor protein, Aβ42 oligomers (APP, Homo sapiens, UniProt P05067)",in vitro clotting,,"20 µM, fibrinogen 1.5 µM plus thrombin, with: amyloid-beta 42 oligomers 3 µM",,fibrin clot turbidity,decreased
